Assay results from different studies.
Values joined by “and” are separate records of one study, mostly repeats; a detail may differ. Numbers after ± are the reported error.
CHRM1: Muscarinic acetylcholine receptor M1 (CHRM1, Homo sapiens, UniProt P11229)
Sequence of UniProt P11229 (whole entry, looked up): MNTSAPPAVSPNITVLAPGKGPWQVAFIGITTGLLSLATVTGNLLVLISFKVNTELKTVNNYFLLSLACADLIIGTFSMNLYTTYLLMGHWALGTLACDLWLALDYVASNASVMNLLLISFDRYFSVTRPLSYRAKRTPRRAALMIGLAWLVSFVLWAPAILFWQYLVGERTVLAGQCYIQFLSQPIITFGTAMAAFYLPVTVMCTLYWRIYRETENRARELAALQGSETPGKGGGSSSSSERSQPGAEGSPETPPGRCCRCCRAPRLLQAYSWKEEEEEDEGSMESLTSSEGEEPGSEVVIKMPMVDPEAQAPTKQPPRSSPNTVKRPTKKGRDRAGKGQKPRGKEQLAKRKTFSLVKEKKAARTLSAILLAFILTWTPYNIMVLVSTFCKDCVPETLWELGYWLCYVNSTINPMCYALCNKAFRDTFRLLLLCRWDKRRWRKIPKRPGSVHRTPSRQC

Substance	target or system	test	system	setting	how to read	endpoint	result
CCOc1ccc(Cc2cc([C@]34OC[C@](CO)(O3)[C@@H](O)[C@H](O)[C@H]4O)ccc2Cl)cc1			healthy human, normal renal function, urine and plasma	oral, 15 mg single dose, 0 to 96 h urine, geometric mean		renal clearance	1.68 mL/min
C[C@H]1CO[C@@H]2Cn3cc(C(=O)NCc4ccc(F)cc4F)c(=O)c(O)c3C(=O)N12			human, plasma	oral, 30 mg, 24 h, single dose, fed, healthy volunteers		concentration	1930 ng/mL
FC(F)(F)Oc1ccc(-c2cc3ccccc3[nH]2)cc1	RAW264.7	NO release, inhibitor, Griess		50 µM, 20 h, LPS-stimulated		inhibition	31.2%
acyl ghrelin (human)			mouse, Ghsr knockout, hypothalamus	intravenous, 10 min		brain/serum ratio	5.39 µL/g
CC(C)=CCn1c(-c2ccccc2)cc2ccccc21	RAW264.7	NO release, inhibitor, Griess		50 µM, 20 h, LPS-stimulated		inhibition	33.1%
COC(=O)c1ccc2c(c1)NC(=O)/C2=C(\Nc1ccc(N(C)C(=O)CN2CCN(C)CC2)cc1)c1ccccc1			human mild liver impairment, plasma	oral, 150 mg twice daily, geometric mean		AUC(tau) steady state	445 ng·h/mL
Nc1ncnc2c([C@@H]3O[C@H](CO)[C@@H](O)[C@H]3O)snc12		fluorescence emission vs pH				pKa	3.29
Cc1ccccc1-c1cc(N2CCN(C)CC2)ncc1N(C)C(=O)C(C)(C)c1cc(C(F)(F)F)cc(C(F)(F)F)c1			healthy human	oral, 100, 300 or 450 mg daily, 7 days	reference: first dose	exposure accumulation	~3 fold
CC(C)OC(=O)[C@H](CCC(=O)C=[N+]=[N-])NC(=O)O[C@H](C)OC(=O)C(C)(C)C			swine plasma	10 µM, 60 min, 37 °C		remaining compound	86 ± 5%
CNCc1ccc(-c2[nH]c3cc(F)cc4c3c2CCNC4=O)cc1			human, fed high-fat meal, plasma	oral, 300 mg, cycle 1 day 1, single dose, arithmetic mean		Cmax	502 ng/mL
COC(=O)C[C@](O)(CCCC(C)(C)O)C(=O)O[C@@H]1C(OC)=C[C@]23CCCN2CCc2cc4c(cc2[C@H]13)OCO4			CD1 mouse, stomach	oral, 1 mg/kg, 24 h, below quantification limit 1.00 ng/mL		tissue concentration	not detected
O=c1cc(-c2ccccc2OCc2ccc(Br)cc2)ncn1C1CCCCC1O (stereo not drawn)	CHRM1	allosteric agonist, IP1 accumulation	CHO-M1 cells	10 µM, unit not given	reference: maximum ACh response	change in baseline activity	73.4 ± 4.1
COc1c(C)c2c(c(O)c1C/C=C(\C)CCC(=O)O)C(=O)OC2		equilibrium dialysis	dogs, albumin H1/H1 and H2/H2, plasma	12.5 µM, 4 h, 37 °C		plasma protein binding	95.4 ± 1.1%
Cn1c(-c2ccc(C(N)=O)cc2F)nnc1C(C)(C)Oc1c(F)cc(Cl)cc1F			healthy young Japanese subjects, plasma	oral, 20 mg once daily, day 18, 14 days dosing		Cmax median	290 ng/mL
O=C1N=C(N2CCOCC2)CN1c1ccc(Cl)cc1			beagle dog, female, plasma	oral, 30 mg/kg, tablets, fasted		Cmax	18400 ng/mL
CN(C)S(=O)(=O)c1ccc(COc2ccccc2-c2cc(=O)n(C3CCCCC3O)cn2)cc1 (stereo not drawn)	CHRM1	allosteric agonist, IP1 accumulation	CHO-M1 cells	10 µM, unit not given	reference: maximum ACh response	change in baseline activity	20.9 ± 2.2
Cl.Cl.NCCCn1c2c(c3ccc(N)cc3c1=O)C(=O)c1ccccc1-2			Sprague-Dawley female rat, liver	oral, 40 mg/kg/day for 3 days, 3 h after final dose		tissue concentration	3.75 µg/g and 5.03 µg/g
Cc1nc2cccc(OCC(C)(C)C(=O)NC(C)C)c2c(N)c1C(=O)O			male Sprague-Dawley rat, plasma	oral gavage, 100 mg/kg, day 7		Tmax	15 min
CCCC[C@H](NC(C)=O)C(=O)N[C@H]1CCC(=O)NC[C@@H](C(=O)N[C@@H](Cc2c[nH]c3ccccc23)C(N)=O)NC(=O)[C@H](CCCNC(=N)N)NC(=O)[C@@H](Cc2ccccc2)NC(=O)[C@H](Cc2c[nH]cn2)NC1=O			CD Sprague-Dawley rat, female, plasma	subcutaneous, 25.0 mg/kg/day, day 1		Cmax	782 ng/mL
O=C(O)C(F)(F)c1cc(F)ccc1Nc1c(Cl)cc(F)cc1Cl		glucuronidation	human liver microsomes	30 min, together with: UDPGA		remaining compound	96 ± 16%
NNC(=O)Cn1cc(COc2ccccc2-c2nc(-c3ccccc3)no2)nn1	A549	qPCR, refers to: mTOR		IC50, 24 h	reference: untreated cancer cells	mRNA level	0.28 ± 0.009 fold

Excerpt of the above:
Substance	target or system	test	system	setting	how to read	endpoint	result
Nc1ncnc2c([C@@H]3O[C@H](CO)[C@@H](O)[C@H]3O)snc12		fluorescence emission vs pH				pKa	3.29
